Assay results gathered from unrelated publications.
Every numbered part comes from another study and shows a few of its results, in no order.

Study 1
Target: Ras GTPase-activating protein-binding protein 1, C-terminal RGG region (G3BP1, Homo sapiens, UniProt Q13283)
Sequence of UniProt Q13283 (whole entry, looked up): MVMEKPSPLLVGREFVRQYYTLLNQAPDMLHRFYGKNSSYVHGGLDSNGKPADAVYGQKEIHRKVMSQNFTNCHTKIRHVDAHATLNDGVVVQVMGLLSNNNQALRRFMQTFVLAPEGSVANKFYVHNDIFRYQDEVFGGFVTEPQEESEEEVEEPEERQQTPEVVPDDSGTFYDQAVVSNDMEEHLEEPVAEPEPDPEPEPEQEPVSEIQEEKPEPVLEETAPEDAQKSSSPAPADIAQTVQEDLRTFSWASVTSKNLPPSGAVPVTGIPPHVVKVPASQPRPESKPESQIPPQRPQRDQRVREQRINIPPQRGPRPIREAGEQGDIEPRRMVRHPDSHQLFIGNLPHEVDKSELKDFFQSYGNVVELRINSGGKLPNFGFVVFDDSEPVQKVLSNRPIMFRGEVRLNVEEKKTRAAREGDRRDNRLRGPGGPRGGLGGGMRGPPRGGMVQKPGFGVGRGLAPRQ
Technique: RNA Bind-n-Seq
Molecule type: RNA
Sample: in vitro
Tested at: 1 µM
Notes: whole 134-nt RNA, ends assumed
Added: 150 mM KCl
Reference: input library
Reading: higher = stronger binding
Quantity: log2 enrichment
Shared flanks, not repeated: GGGAGUUCUACAGUCCGACGAUC … UGGAAUUCUCGGGUGUCAAGG
Sequence = ACCAUGCAGGUGGGCAUCUUUGGGAAGUGGGGCAAGGGGGGGAUAGGGAGGGGGGUAACACUUUGGGAACAGGUGGUCCCAAAACGUUUC; value = -0.847
Sequence = GCGGGAAGUAAAAACAAAUGGAAAUGCUUCGGAUAGUGGCAGGGGUGGGGGUUGCUAAGGAAAGGGUGGGAUGGGAGUGGGUAAAGAGUU; value = 1.26
Sequence = UGGCCCUGGUGGCAGGCGGGGAGGAAGAGGUGGCCUCAUGGAUCGUGGUGGUCCCGGUGGAAUGUUCAGAGGUGGCCGUGGUGGAGACAG; value = 2
Sequence = CUCAAGUCCUGUGCUACACAUCGUAUGUACCGAAUCGGGGCGGGGCGGGCGGGAAAGUAUUAUGUUACGCCGUUCGGAUCUGCACUUCCA; value = 2.03
Sequence = UGGAAGCUCAUACGACUGUGAAAGAAGCUGAGGAUGACAACAUCUCGGUCACAAUCCAGGCUGAAGAUGCCAUCACUCUGGAUUUUGAUG; value = -1.77
Sequence = CACAGACAACACGCACCCACACAGACACGGAGGGAAGGGGUUGGGAUGGGGACAGGGUGCACAGCAGGGCGGGGUAGGACCCCAGCCCCU; value = -0.39
Sequence = CCUCAAGUCCUGUGCUACACAUCGUAUGUACCGAAUCGGGGCGGGCGGCGGGGAAAGUAUUAUGUUACGCCGUUCGGAUCUGCACUUCCA; value = 0.0869
Sequence = UCCUGUGCUACACAUCGUAUGUACCGAAUCAAACCCAAACCCCCCCAAACCCCCCCAAAAAAGUAUUAUGUUACGCCGUUCGGAUCUGCA; value = -0.675
Sequence = UGGCCCUGGUGGCAUGCGGGGAGGAAGAGGAGGCCUCAUGGAUCGUGGUGGUCCCGGUGGAAUGUUCAGAGGUGGCCGUGGUGGAGACAG; value = 2.53

Study 2
Target: Phosphate system positive regulatory protein PHO4, full length, GST-tagged (PHO4, Saccharomyces cerevisiae, UniProt P07270, residues 1-312)
Technique: competition protein-binding microarray
Molecule type: double-stranded DNA, one strand shown
Sample: in vitro
Tested at: 2 µM
Notes: whole 60-bp probe, lowest competitor level
Added: Cbf1 competitor, 0.05 µM
Reading: higher = stronger binding
Quantity: fluorescence intensity
Shared flanks, not repeated: … GTCTTGATTCGCTTGACGCTGCTG
Construct (chain): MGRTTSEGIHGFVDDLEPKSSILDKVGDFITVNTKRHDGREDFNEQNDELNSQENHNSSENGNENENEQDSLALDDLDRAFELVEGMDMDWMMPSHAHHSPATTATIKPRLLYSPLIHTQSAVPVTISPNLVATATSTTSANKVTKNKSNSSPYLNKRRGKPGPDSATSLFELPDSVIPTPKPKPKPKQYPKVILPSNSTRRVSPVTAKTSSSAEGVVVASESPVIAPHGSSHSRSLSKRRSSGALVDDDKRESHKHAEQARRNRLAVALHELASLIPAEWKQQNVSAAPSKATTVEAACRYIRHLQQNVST
Sequence = CTAACGAAGGTTTGTATTGTGGGTGACAAGCCAAGT; value = 4090 a.u.
Sequence = CATACCCAACCTTGTCACCCTACTTAAGATATTTGT; value = 4220 a.u.
Sequence = CTCCACCTCGACCATCACGTCCACTTTGCTGCTAAC; value = 5490 a.u.
Sequence = TTCATTTGTCACCGTCACGTGATGGCATTTAAGTAC; value = 15600 a.u.
Sequence = TCAACCTGGGTTCGTCACGCAAGACTTGAAGATGAT; value = 4870 a.u.
Sequence = TAAGTTCCAGCTCTTCACGTGCTTTTGCTTCTCTCA; value = 13800 a.u.
Sequence = GGAAGTCCACACCGAAGTGTGACGGCTGAGTCTGTG; value = 4730 a.u.
Sequence = AAATTACTAAGTTCGCACGTGTTTTACCCCGTATGA; value = 19800 a.u.
Sequence = TCGTTTCCTAACTGGCACGTCACTTATAACGAGGTG; value = 6920 a.u.
Sequence = TGAATCTAGACCGTCATCGTGCGGACTCCTAGATCC; value = 8160 a.u.
Sequence = TTGCGGTATAGGGTCCACGTGATGGGAATAAAAGCA; value = 15700 a.u.
Sequence = GTAATACATTTTCATCACATGAGAGTGTTCATTCAA; value = 5800 a.u.
Sequence = TTGGTGTGGGTAAAACACGTGAATAAGAAACTGTAT; value = 13200 a.u.
Sequence = TGCGCAACAACTTGTCACTGGACTTTATGTCTAGAA; value = 2950 a.u.
Sequence = TGCGCAACAACTTGACACGTGTTTTTATGTCTAGAA; value = 20100 a.u.
Sequence = TCTTTACGGGCAGATGCTGTCTCCACTATTAACTTG; value = 3840 a.u.
Sequence = CGTCCTAGCGATTGAGAGGTGGGTGCCATGAGGAAG; value = 6650 a.u.
Sequence = AGGATCTAAAACCATCACATGATGTTCTAGTGCGTC; value = 7120 a.u.
Sequence = TTCGCCAGTGCTTTGCCCGTGCAAATCGGATGCTGG; value = 6230 a.u.

Study 3
Target: RNA binding protein fox-1 homolog 2, RRM domain, GST-SBP tag (RBFOX2, Homo sapiens, UniProt O43251-10, residues 100-194)
Technique: RNA Bind-n-Seq
Molecule type: RNA
Sample: in vitro
Tested at: 365 nM
Notes: natural RNA segment, single round, ends assumed
Reference: no-protein control
Reading: higher = stronger binding
Quantity: RBNS enrichment (R)
Shared flanks, not repeated: GGGAGUUCUACAGUCCGACGAUC … UGGAAUUCUCGGGUGCCAA
Sequence = CCUCACUUACUUCUUAUGAAGUUGGCAUUACCUGAGACUCUUAGCUGUGAUUAGGUACAAGCUUACCUUUUAGGGUAGAAAAAGAAAGAUCAUUUGAAAAAUGUAUCUAA; value = 0.364
Sequence = UUUCCUGUUUUUUCUGUUGCUGUGGAACUUAAAGAAUGUGAAAGCUGUCAAAGGGUGUUUUCGGAAUCACUUUUGUGUUUCGUAUAGUAAAACAAUGUGAUUCAUUCCAA; value = 0.46
Sequence = GCAUUCAGUGGCCUAUCUCCAGAUUGUCUGAUUUCUGAAUGUAAAGUUGUUGUGUUUUUUUUUAAAUAGUAGUUUGUAGUAUUUUAAAGAAAGAACAGAUCGAGUUCUAA; value = 0.71
Sequence = AGCCUCCAAAACUAACCAGGUCCACCUAACACCCCCUCCCUCCCCUAAGAAGAUGGAUGUCCUCAAAAGAGAAGGAACAAACCUCCUUGGGAAUCCACAUUUUUUGGGGG; value = 0.434
Sequence = CUCACCUCCACCCCCUCCUGUCACCGGCCUUGUGACAUUCACUCAGAGAAGACCACACCAAGGAGGCGGCCGCUGGCCCAGGAGAGAACACGGGGAGGUUUGUUUGUGUG; value = 0.465
Sequence = GGGGAGGGACAAGGGAUUCUGGGAAGCUUGAGCCUCCCCCAAAGCAAUGUGAGUCCCAGAGCCCGCUUUUGUUCUUCCCCACAAUUCCAUUACUAAGAAACACAUCAAAU; value = 0.478
Sequence = UAAUUUAUUCCCUGACAUUGCUGGUGACACUGGGAAGGGAACAAGCCACAGGGAUGAGGUGAAGCCAUCUCUGUCCUUCCUGGAAUACCGGAGAUCCAGGGGCCUCCAGC; value = 0.498
Sequence = GUUAACAAAGACAAACUGCUUCGAGUUUUCUGUUUUCGUAGUGAGCUUAAAAUGCAUGACAGGAUAGUUUCUCAUUCUUUGAAACAUUUUCAGUCUCAAACUUUCUGCAU; value = 0.447

Study 4
Target: RING finger protein unkempt homolog, zinc fingers 1-6, SBP tag (UNK, Homo sapiens, UniProt Q9C0B0, residues 30-357)
Sequence of UniProt Q9C0B0 (30-357, looked up): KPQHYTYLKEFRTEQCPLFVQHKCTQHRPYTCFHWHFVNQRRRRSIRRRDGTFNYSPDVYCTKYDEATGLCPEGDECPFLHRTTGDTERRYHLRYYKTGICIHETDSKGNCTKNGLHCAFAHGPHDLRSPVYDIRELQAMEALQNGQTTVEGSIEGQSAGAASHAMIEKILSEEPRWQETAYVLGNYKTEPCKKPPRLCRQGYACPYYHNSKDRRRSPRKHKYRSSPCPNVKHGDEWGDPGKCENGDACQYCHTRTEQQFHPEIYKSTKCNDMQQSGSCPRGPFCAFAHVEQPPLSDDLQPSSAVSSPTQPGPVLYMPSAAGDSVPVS
Technique: RNA Bind-n-Seq
Molecule type: RNA
Sample: in vitro
Tested at: 100 nM
Notes: RNA with constant flanks, vertebrate orthologous sites, ends assumed
Reference: input RNA pool
Reading: higher = stronger binding
Quantity: bound/input enrichment
Shared flanks, not repeated: GGGAGUUCUACAGUCCGACGAUC … CAACAGAGGAUUGAGCAUCA
Sequence = UUCAGGCACAACUGACUGGUUCACAGCAUUCCUUACAUAGUUAUCUAUCAAAUGCAAAUGUAGUUAAUUUUCAGGAAACAAGCAGACAGUCAUCUUUAUCCUGUAGCCCAGUUGGAGAGU; value = 1.45 ratio
Sequence = CUUAUUUCUUCUUUCCUUACUUUCUUUUUUCUUUCGUUUCUUUUUUUUUUUUUUUUUUGGUAGUUGUUGUUACCCACGCCAUUUUACGUCUCCUUCACUGAAGGGCUAGAGUUUUAACUU; value = 3.46 ratio
Sequence = ACUCUAGUUCUUAACAACCAACACUCCUAAAAGAGUUAGAAAAAAGUUUACAACAUAAUCUAGUUUACAAAGAAGUCUUGUGCUAGAAUACUUUUUAAAAAGUAUUUUUGAAUACCAUUA; value = 0.789 ratio
Sequence = CAAAAAUGAACACCUAAAGGAAUUUUUUUUUCAUUUUUAAUUUUUCCCCUUAGACACAUUUAGACAUCCUUUUUUUCCAGGCAGAUCAUUCAGAAUGUGCGAGUGUGUGUGCACAUGUUA; value = 1.3 ratio
Sequence = AUAAGAACUCUUGCAUUCUUAGAUGUUAUAAAAAAUAUGUAUCUGAACUGUAAGAGUUAUUAGUAAACAGUUUUUUUUUUUAAAGCACUUGUUUUGGGUACAAGGCUUUUCUGAAAUUUU; value = 0.539 ratio
Sequence = GCUCUAGUUCUUAAGAACCAACACUCCCAAAAGAGGUAGAAAAAAGUUUACAACAUAAUCUAGUUUAUGAAGAAGUCUUGUGCUAGAAUACUUUUUUAAAAGUAUUUUUGAAUACCAUUA; value = 0.443 ratio
Sequence = GGUGGUGGGACACAGGCCCUGCCUCAGUGGCUGCUGGCUGCUACCUCAGGCAGGCUGUUUUAGUUCUGUAUUUUUAUUUUAACAGUGCCCUUCCUGUACAUGAGUGAGAUUUUUGAAAAU; value = 1.72 ratio
Sequence = CACAUCUGGUGAUAUUUGGCCUGGUCUUUCAGCUUAUGAUAAUAGUCCCAGGUCGCCCCAUAGUCCCUCACCGAUUGCCACACCACCCAGUCAGAGUUCAUCUUGCUCUGAUGCCCCUAU; value = 0.444 ratio

Some of these lines once more (study 2):
Sequence = TCGTTTCCTAACTGGCACGTCACTTATAACGAGGTG; value = 6920 a.u.
Sequence = CATACCCAACCTTGTCACCCTACTTAAGATATTTGT; value = 4220 a.u.
Sequence = TCAACCTGGGTTCGTCACGCAAGACTTGAAGATGAT; value = 4870 a.u.
